Results of several laboratories.
Protocols differ between the studies behind these lines. ± marks the error that the study gave.

For `C1=C(c2ccc(CN3CCCCC3)cc2)N2CCN=C2c2ccccc21`, the inhibition was 70.5% (SARS-CoV-2; viral replication; Vero E6, USA-WA1/2020; 2.5 µM).
For `CC[C@H](C)[C@H](NC(=O)[C@H](CC(C)C)NC(=O)[C@H](Cc1c[nH]c2ccccc12)NC(=O)[C@H](CCC(N)=O)NC(=O)[C@@H](NC(=O)[C@H](Cc1ccccc1)NC(=O)[C@H](C)NC(=O)[C@H](CCCCNC(=O)COCCOCCNC(=O)COCCOCCNC(=O)CC[C@H](NC(=O)CCCCCCCCCCCCCCCCCCC(=O)O)C(=O)O)NC(=O)[C@H](CCC(N)=O)NC(=O)[C@H](C)NC(=O)[C@@H](NC(=O)[C@H](CCCCN)NC(=O)[C@H](CC(=O)O)NC(=O)[C@H](CC(C)C)NC(=O)C(C)(C)NC(=O)[C@@H](NC(=O)[C@H](CO)NC(=O)[C@H](Cc1ccc(O)cc1)NC(=O)[C@H](CC(=O)O)NC(=O)[C@H](CO)NC(=O)[C@@H](NC(=O)[C@H](Cc1ccccc1)NC(=O)[C@@H](NC(=O)CNC(=O)[C@H](CCC(=O)O)NC(=O)C(C)(C)NC(=O)[C@@H](N)Cc1ccc(O)cc1)[C@@H](C)O)[C@@H](C)O)[C@@H](C)CC)[C@@H](C)CC)C(C)C)C(=O)N[C@@H](C)C(=O)NCC(=O)NCC(=O)N1CCC[C@H]1C(=O)N[C@@H](CO)C(=O)N[C@@H](CO)C(=O)NCC(=O)N[C@@H](C)C(=O)N1CCC[C@H]1C(=O)N1CCC[C@H]1C(=O)N1CCC[C@H]1C(=O)N[C@@H](CO)C(N)=O`, “pulse rate change” read 5.09 bpm (healthy subjects; 0.5 mg, day 29, multiple ascending dose, LS mean; baseline: baseline).
`O=C(/C=C/c1ccc(O)c(O)c1/C=C/c1ccc(O)c(O)c1)O[C@H](Cc1ccc(O)c(O)c1)C(=O)O` has an inhibition of 0% (SARS-CoV-2; cytopathic effect; Vero E6; 3.125 µM, first run).
With `O=C(CSc1nc2ccccc2c(=O)[nH]1)NNC(=O)c1ccccc1Br` the inhibition was 50 ± 3.3% (SARS-CoV-2; viral replication, plaque reduction; 125 µM).
The inhibition of `CCC(CC)COC(=O)[C@H](C)N[P@](=O)(OC[C@H]1O[C@@](C#N)(c2ccc3c(N)ncnn23)[C@H](O)[C@@H]1O)Oc1ccccc1` is reported as 97.1% (SARS-CoV-2; viral replication; Vero E6, USA-WA1/2020; 2.5 µM).
`Cn1cnc(Cn2c(=O)[nH]/c(=N\c3cc4cn(C)nc4cc3Cl)n(Cc3cc(F)c(F)cc3F)c2=O)n1` has an inhibition of 0% (SARS-CoV-2; viral replication; Vero C1008, XBB.1; 0.01715 µM).
`O=C(CSc1nc2c(c(=O)[nH]1)CCCC2)NNC(=O)c1ccc(Cl)cc1` gave an inhibition of 31.6 ± 4.27% (SARS-CoV-2; viral replication, plaque reduction; 31.25 µM).
`Cn1ccc(S(=O)(=O)N2CCCC(Nc3nccc(-c4c(-c5cccc(OCOP(=O)(O)O)c5)nc5occn45)n3)C2)n1` (centres unmarked) has an inhibition of 56.8% (SARS-CoV-2; viral replication; Vero E6, USA-WA1/2020; 2.5 µM).
`Nc1ncnc2c([C@@H]3N[C@H](CO)[C@@H](O)[C@H]3O)c[nH]c12` has an antigen-positive cells of 56.3% (Zaire ebolavirus; antibody staining; HeLa, Kikwit; 1.6 µM).
`O=C(CSc1nc2c(c(=O)[nH]1)CCCC2)NNC(=O)c1ccc([N+](=O)[O-])cc1` has an inhibition of 43.3 ± 3.35% (SARS-CoV-2; viral replication, plaque reduction; 125 µM).
For `CC(C)=CCc1c(O)ccc(C(=O)/C=C/c2ccc(O)cc2)c1O`, the inhibition was 90% (SARS-CoV-2; viral cytopathic effect; Vero E6; 100 µM).
For `CC(C)(C)[C@H](NC(=O)C(F)(F)F)C(=O)N1C[C@H]2[C@@H]([C@H]1C(=O)N[C@H](C#N)C[C@@H]1CCNC1=O)C2(C)C`, the inhibition was 3.98% (SARS-CoV-2; viral replication, infectious virus; Vero E6; 0.00015 µM).
The inhibition of `COc1ccc(C[C@@H]2c3cc(Oc4cc(C[C@@H]5c6cc(O)c(OC)cc6CCN5C)ccc4O)c(OC)cc3CCN2C)cc1` is reported as 50% (SARS-CoV-2; cytopathic effect; Vero E6; 50 µM, first run).
`Cn1cc(-c2ccncc2)c(-c2ccc(OCc3ccc4ccccc4n3)cc2)n1` gave an inhibition of 46.7% (SARS-CoV-2; viral replication; Vero E6, USA-WA1/2020; 2.5 µM).

A few entries again:
`O=C(CSc1nc2c(c(=O)[nH]1)CCCC2)NNC(=O)c1ccc(Cl)cc1` gave an inhibition of 31.6 ± 4.27% (SARS-CoV-2; viral replication, plaque reduction; 31.25 µM).
